Experimental data of several laboratories.
Numbered parts are unrelated; each lists some results of a single study. “And” joins repeats or separate records; there may be more than shown.

Block 1
Structure (SMILES): C[C@@H]1CN(c2ccc(-c3cc(C(=O)NCCOCCOCCOCCOCCOCCOCCNC(=O)/C=C/c4[nH]cc(C(=O)N[C@@H](CC(N)=O)c5ccc(F)c(Cl)c5)c4-c4ccc(Cl)cc4F)ccc3F)cc2NC(=O)c2ccc(F)cc2C(F)(F)F)C[C@H](C)N1C
Observed: thermal unfolding
Technique: differential scanning fluorimetry
Concentration: 5.5 µM
Reading: higher = more unfolded
DCAF1: DDB1- and CUL4-associated factor 1 (DCAF1, Homo sapiens, UniProt Q9Y4B6)
Sequence of UniProt Q9Y4B6 (whole entry, looked up): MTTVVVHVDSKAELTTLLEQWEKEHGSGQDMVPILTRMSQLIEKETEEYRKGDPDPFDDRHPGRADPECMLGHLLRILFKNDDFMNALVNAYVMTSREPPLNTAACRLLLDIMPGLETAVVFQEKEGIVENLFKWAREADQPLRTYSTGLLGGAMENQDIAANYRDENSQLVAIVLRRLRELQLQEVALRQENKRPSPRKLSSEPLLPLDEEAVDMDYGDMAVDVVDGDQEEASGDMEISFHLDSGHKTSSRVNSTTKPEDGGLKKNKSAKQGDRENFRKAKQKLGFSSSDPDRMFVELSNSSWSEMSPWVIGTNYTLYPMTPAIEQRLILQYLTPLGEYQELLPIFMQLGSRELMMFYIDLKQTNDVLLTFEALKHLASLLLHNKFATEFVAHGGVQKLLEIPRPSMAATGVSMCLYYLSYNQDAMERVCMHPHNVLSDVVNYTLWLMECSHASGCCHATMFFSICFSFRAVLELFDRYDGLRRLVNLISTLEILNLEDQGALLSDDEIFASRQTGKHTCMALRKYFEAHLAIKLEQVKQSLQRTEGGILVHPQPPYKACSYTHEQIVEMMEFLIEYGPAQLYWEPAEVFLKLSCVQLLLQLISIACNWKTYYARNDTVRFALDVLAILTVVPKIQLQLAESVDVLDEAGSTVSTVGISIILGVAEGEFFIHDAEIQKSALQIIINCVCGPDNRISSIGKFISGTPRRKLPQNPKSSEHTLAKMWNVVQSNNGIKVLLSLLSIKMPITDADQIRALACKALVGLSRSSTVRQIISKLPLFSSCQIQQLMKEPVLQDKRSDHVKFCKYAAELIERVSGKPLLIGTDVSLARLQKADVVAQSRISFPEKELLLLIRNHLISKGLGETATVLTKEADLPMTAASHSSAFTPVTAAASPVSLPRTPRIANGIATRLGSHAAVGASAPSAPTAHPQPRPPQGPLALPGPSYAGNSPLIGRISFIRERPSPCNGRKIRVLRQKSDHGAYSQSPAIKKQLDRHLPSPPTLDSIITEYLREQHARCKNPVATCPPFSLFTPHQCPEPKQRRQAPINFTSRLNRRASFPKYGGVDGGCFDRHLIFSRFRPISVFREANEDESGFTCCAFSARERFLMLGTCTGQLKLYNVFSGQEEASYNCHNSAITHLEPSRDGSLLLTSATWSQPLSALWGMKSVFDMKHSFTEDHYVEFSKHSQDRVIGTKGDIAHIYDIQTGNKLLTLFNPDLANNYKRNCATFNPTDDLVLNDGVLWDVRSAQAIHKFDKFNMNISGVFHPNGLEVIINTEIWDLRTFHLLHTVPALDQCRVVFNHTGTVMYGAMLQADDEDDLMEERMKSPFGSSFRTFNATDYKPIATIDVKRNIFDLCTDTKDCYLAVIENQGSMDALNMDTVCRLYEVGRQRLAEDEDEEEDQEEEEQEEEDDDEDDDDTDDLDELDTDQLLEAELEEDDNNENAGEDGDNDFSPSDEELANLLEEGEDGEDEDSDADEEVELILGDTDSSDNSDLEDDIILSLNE
WDR5: WD repeat-containing protein 5 (WDR5, Homo sapiens, UniProt P61964)
It gave 30100 a.u. for “SYPRO Orange fluorescence” (DCAF1; 93.01 °C).
DCAF1; 53.61 °C — “SYPRO Orange fluorescence”: 23500 a.u.
It gave 47900 a.u. for “SYPRO Orange fluorescence” (DCAF1; 60.21 °C).
For WDR5; 66.81 °C: “SYPRO Orange fluorescence” read 18800 a.u.
For WDR5; 62.61 °C: “SYPRO Orange fluorescence” read 15300 a.u.
It gave 15800 a.u. for “SYPRO Orange fluorescence” (WDR5; 57.61 °C).

Further values, each from its own experiment
The IC50 of `CN1CCC[C@H]1COc1nc2c(c(N3CCN(C(=O)C4CC4)[C@@H](CC#N)C3)n1)CCN(c1cccc3cccc(Cl)c13)C2` is reported as 3300 nM (GTPase KRas (KRAS, Homo sapiens, UniProt P01116, G13D); target engagement in cells, BRET).
For `CCOc1ccc2nc(Sc3nc(Nc4ccc(I)cc4)nc(N4CCOCC4)n3)sc2c1`, the mRNA level was 2.02 and 1.45 and 2.99 and 2.55 and 2.95 and 2.62 and 1.94 (Gaucher fibroblasts; qPCR, refers to: GBA1; 10 µM, 24 h, unit not given; baseline: DMSO).
With `Cc1nc(C)c(C=[N+]([O-])C(C)(C)C)nc1C` the ATP content was 57.5% and 60.3% and 54.2% (primary cerebellar granule neurons, rat; 300 µM, 2 h, together with: MPP+; baseline: untreated control).
The expression ratio of `COCC1CC2C(CCC3(C)C(O)CCC23)c2ccc(O)cc21` (stereo not drawn) is reported as 1 (A549; DNA microarray, refers to: CCL11; concentration not given; baseline: untreated A549 cells).
`CCOC(=O)/C=C/CNCCCCN1c2cc(Cl)ccc2CCc2cnn(C)c21` has an IC50 of 2260 nM (NCI-H292; cell growth or viability, ATP luminescence).
For `CCn1cnc2c(NCc3nc4ccc(F)c(F)c4[nH]3)nc(N3CCn4ncnc4C3)nc21`, the degradation was 44.2% (MDA-MB-231; degrader, western blot, refers to: cyclin K; 5 nM, 24 h).

A few entries again (block 1):
DCAF1; 53.61 °C — “SYPRO Orange fluorescence”: 23500 a.u.
It gave 47900 a.u. for “SYPRO Orange fluorescence” (DCAF1; 60.21 °C).
